Measured values collected from several papers.
Each line is one published result; not all experiments were run side by side. Numbers after ± are the reported error.

| SMILES | test | system | conditions | tissue uptake |
| --- | --- | --- | --- | --- |
| CC(C)C[C@H](NC(=O)[C@@H](CCCCNC(=O)[C@@H](Cc1ccccc1)NC(=O)CCCCCCCNC(=O)CN1CCN(CC(=O)O)CCN(CC(=O)O)CCN(CC(=O)O)CC1)NC(=O)[C@H](Cc1ccc(O)cc1)NC(=O)[C@H](CO)NC(=O)[C@H](Cc1c[nH]c2ccccc12)NC(=O)[C@H](Cc1c[nH]cn1)NC(=O)[C@@H]1CCC(=O)N1)C(=O)N[C@@H](CCCNC(=N)N)C(=O)N1CCC[C@H]1C(=O)NCC(N)=O [indium-111 labelled] | – | male athymic nude mice, DU-145 prostate cancer xenograft, bone | intravenous, dose not given, 1 h, together with: unlabeled blocking peptide 10 µg | 0.36 ± 0.13 %ID/g |
| CCCC[C@H](NC(=O)CCCCCCCNC(=O)CN1CCN(CC(=O)O)CCN(CC(=O)O)CC1)C(=O)N[C@H]1CC(=O)NCCCC[C@@H](C(N)=O)NC(=O)[C@H](Cc2c[nH]c3ccccc23)NC(=O)[C@H](CCCNC(=N)N)NC(=O)[C@@H](Cc2ccccc2)NC(=O)[C@H](Cc2c[nH]cn2)NC1=O [fluorine-18 labelled] | – | C57 mice B16-F10 melanoma, blood | intravenous, 0.37 MBq, 0.5 h | 2.47 ± 0.26 %ID/g |
| CCCC[C@H](NC(=O)CNC(=O)CNC(=O)[C@H](CCCCNC(=O)[C@H](CC(=O)O)NC(=O)C(C)c1ccc(CC(C)C)cc1)NC(=O)CN1CCN(CC(=O)O)CCN(CC(=O)O)CCN(CC(=O)O)CC1)C(=O)N[C@H]1CC(=O)NCCCC[C@@H](C(N)=O)NC(=O)[C@H](Cc2c[nH]c3ccccc23)NC(=O)[C@H](CCCNC(=N)N)NC(=O)[C@@H](Cc2ccccc2)NC(=O)[C@H](Cc2c[nH]cn2)NC1=O (some centres unmarked) [lutetium-177 labelled] | – | C57 mice, tumour-bearing, skin | intravenous, 0.037 MBq, 4 h | 0.45 ± 0.09 %ID/g |
| Cc1cc(C)n(CCN(CCN)CCCCCCNC(=O)[C@@H](N)Cc2c[nH]cn2)n1.[99Tc+].[C-]#[O+].[C-]#[O+].[C-]#[O+] | – | BALB/c nude mice, MCF7 xenograft, heart | intravenous, 15 min | 1.51 ± 0.16 %IA/g |
| O=C(NCC1OC2CCC=CCCC2O1)c1ccc(COCCOCCOCC[18F])cc1 (centres unmarked) | – | healthy female BALB/c nude mice, heart | intravenous, 7.4 MBq per mouse, 120 min | 1.7 ± 0.1 %ID/g |
| COc1ccc(Nc2nc(Nc3ccc(OCCOCCOCC[18F])cc3)ncc2Br)cc1 | – | ICR mice, S180 tumour-bearing, heart | intravenous, 370 kBq, 120 min | 1.86 ± 0.13 %ID/g |
| N#C[C@@H]1CCCN1C(=O)CNC(=O)c1ccnc2ccc(OCCCN3CCN(C(=O)CCc4ccc5c(c4)CN4CCN(Cc6cc(CCC(=O)O)ccc6O)CC(=O)[O][Al-]([18F])([O]C(=O)C4)[O]5)CC3)cc12 (some centres unmarked) | – | BALB/c nude mice, U-87 MG xenograft, stomach | 1 h, blocking, together with: DOTA-FAPI-04 40 nmol/mouse co-injected | 1.77 ± 0.88 %ID/g |
| COc1ccc2c(c1)C(C)(C)C(/C=C/C1=C(Oc3ccc(C(=O)NCCCCOc4cc(CN(Cc5ccccn5)Cc5ccccn5)cc(CN(Cc5ccccn5)Cc5ccccn5)c4)cc3)C(=C/C=C3/N(CCCCS(=O)(=O)[O-])c4ccc(OC)cc4C3(C)C)CCC1)=[N+]2CCCCS(=O)(=O)[O-].O=[N+]([O-])[O-].O=[N+]([O-])[O-].[99Tc+].[C-]#[O+].[C-]#[O+].[C-]#[O+].[Zn+2] | – | BALB/c mice, S. aureus myositis, brain | 12 h post-injection | 0.03 %ID/g |
| CCCC[C@H](NC(=O)CNC(=O)CNC(=O)[C@H](CCCCNC(=O)C(C)c1ccc(CC(C)C)cc1)NC(=O)CN1CCN(CC(=O)O)CCN(CC(=O)O)CCN(CC(=O)O)CC1)C(=O)N[C@H]1CC(=O)NCCCC[C@@H](C(N)=O)NC(=O)[C@H](Cc2c[nH]c3ccccc23)NC(=O)[C@H](CCCNC(=N)N)NC(=O)[C@@H](Cc2ccccc2)NC(=O)[C@H](Cc2c[nH]cn2)NC1=O (some centres unmarked) [lutetium-177 labelled] | – | C57 mice, tumour-bearing, pancreas | 2 h | 0.34 ± 0.2 %ID/g |
| COc1ccc(Nc2nc(Nc3ccc(OCCOCC[18F])cc3)ncc2Br)cc1 | – | ICR mice, S180 tumour-bearing, muscle | intravenous, 370 kBq, 60 min | 2.37 ± 0.14 %ID/g |
| O=C([O-])CN1CCN(CC(=O)[O-])CCN(CC(=O)NC[C@H]2CC[C@H](C(=O)N[C@H](Cc3cnc4ccccc4c3)C(=O)NCCCC[C@H](NC(=O)N[C@@H](CCC(=O)O)C(=O)O)C(=O)O)CC2)CCN(CC(=O)[O-])CC1.[64Cu+2] | ex vivo gamma counting | 22Rv1 tumour-bearing mice, tumor | intravenous, 0.74 MBq, 24 h post-injection | 12.2 %ID/g |
| N#C[C@@H]1CCCN1C(=O)CNC(=O)c1ccnc2ccc(OCCCN3CCN(C(=O)CCc4ccc5c(c4)CN4CCN6CC(=O)[O][68Ga-]([O]C(=O)C4)([O]5)[O]c4ccc(CCC(=O)N5CCN(CCCOc7ccc8nccc(C(=O)NCC(=O)N9CCC[C@H]9C#N)c8c7)CC5)cc4C6)CC3)cc12 | – | BALB/c nude mice, U-87 MG xenograft, heart | 2 h | 1.03 ± 0.06 %ID/g |
| CCCC[C@H](NC(=O)COCCOCCNC(=O)CN1CCN(CC(=O)O)CCN(CC(=O)O)CC1)C(=O)N[C@H]1CC(=O)NCCCC[C@@H](C(N)=O)NC(=O)[C@H](Cc2c[nH]c3ccccc23)NC(=O)[C@H](CCCNC(=N)N)NC(=O)[C@@H](Cc2ccccc2)NC(=O)[C@H](Cc2c[nH]cn2)NC1=O [fluorine-18 labelled] | – | C57 mice B16-F10 melanoma, tumor | intravenous, 0.37 MBq, 0.5 h | 12.1 ± 0.79 %ID/g |
| O=C(NCC1OC2CCC=CCCC2O1)c1ccc([18F])nc1 (centres unmarked) | – | healthy female BALB/c nude mice, skin | intravenous, 7.4 MBq per mouse, 5 min | 2.1 ± 0.6 %ID/g |

For quick reference, copied from above:
| SMILES | test | system | conditions | tissue uptake |
| --- | --- | --- | --- | --- |
| N#C[C@@H]1CCCN1C(=O)CNC(=O)c1ccnc2ccc(OCCCN3CCN(C(=O)CCc4ccc5c(c4)CN4CCN6CC(=O)[O][68Ga-]([O]C(=O)C4)([O]5)[O]c4ccc(CCC(=O)N5CCN(CCCOc7ccc8nccc(C(=O)NCC(=O)N9CCC[C@H]9C#N)c8c7)CC5)cc4C6)CC3)cc12 | – | BALB/c nude mice, U-87 MG xenograft, heart | 2 h | 1.03 ± 0.06 %ID/g |
